Assay results pooled from the literature.
Compare with care: the assays were run in different laboratories. Several values in a cell are separate wells, animals, samples, runs or records. Numbers after ± are the reported error.
ALB: Albumin (ALB, Homo sapiens, UniProt P02768)
ABCB1: ATP-dependent translocase ABCB1 (ABCB1, Homo sapiens, UniProt P08183)
Chain of UniProt P08183 (whole entry, looked up): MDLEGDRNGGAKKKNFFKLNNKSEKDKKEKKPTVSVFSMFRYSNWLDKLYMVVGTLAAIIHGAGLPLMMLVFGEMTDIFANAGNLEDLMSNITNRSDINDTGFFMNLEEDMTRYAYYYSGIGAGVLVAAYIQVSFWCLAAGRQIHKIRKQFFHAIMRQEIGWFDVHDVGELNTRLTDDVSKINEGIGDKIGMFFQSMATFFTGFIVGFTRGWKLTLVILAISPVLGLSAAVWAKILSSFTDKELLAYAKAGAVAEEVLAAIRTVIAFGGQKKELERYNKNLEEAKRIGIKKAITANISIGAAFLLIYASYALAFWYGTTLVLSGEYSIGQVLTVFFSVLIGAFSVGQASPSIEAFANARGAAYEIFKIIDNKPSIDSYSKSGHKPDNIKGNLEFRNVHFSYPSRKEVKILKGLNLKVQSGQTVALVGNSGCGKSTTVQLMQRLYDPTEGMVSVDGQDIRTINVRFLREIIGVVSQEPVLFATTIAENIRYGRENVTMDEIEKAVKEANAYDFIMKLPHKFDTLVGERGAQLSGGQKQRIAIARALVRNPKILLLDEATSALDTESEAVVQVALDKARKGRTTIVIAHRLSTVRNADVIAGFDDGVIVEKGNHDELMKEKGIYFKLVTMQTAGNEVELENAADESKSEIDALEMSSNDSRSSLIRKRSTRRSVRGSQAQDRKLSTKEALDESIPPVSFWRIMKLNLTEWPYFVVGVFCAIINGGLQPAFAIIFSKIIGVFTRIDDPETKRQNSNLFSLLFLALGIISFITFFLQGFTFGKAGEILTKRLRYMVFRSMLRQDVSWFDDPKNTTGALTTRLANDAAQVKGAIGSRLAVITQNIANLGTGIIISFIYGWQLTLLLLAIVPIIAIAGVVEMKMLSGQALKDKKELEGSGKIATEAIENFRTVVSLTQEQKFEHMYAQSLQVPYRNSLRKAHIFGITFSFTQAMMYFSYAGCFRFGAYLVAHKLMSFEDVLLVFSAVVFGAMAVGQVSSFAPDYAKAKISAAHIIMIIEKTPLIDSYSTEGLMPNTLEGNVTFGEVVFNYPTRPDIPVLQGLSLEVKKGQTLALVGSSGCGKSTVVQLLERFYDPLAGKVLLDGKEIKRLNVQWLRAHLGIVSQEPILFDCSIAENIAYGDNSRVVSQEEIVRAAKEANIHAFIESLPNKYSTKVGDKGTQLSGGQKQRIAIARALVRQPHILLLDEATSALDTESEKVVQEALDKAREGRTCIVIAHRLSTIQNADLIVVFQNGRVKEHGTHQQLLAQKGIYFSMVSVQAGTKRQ
Chain of UniProt P05177 (whole entry, looked up): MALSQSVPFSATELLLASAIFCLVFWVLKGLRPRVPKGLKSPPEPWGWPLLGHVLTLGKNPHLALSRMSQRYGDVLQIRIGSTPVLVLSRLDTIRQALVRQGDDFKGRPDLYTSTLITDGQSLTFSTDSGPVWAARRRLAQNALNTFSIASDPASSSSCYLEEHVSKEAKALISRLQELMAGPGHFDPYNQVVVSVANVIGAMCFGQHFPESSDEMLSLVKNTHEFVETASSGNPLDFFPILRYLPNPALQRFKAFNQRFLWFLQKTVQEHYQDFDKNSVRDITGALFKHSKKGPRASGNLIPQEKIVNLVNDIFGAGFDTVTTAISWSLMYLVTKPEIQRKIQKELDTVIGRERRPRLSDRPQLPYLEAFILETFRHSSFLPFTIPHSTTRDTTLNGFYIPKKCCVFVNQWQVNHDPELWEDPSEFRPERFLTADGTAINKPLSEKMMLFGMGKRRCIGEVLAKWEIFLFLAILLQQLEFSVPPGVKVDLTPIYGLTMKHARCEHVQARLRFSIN

SMILES | target | test | test system | setting | scale | measurement | value
CN1CCN(c2ccc3[nH]c(-c4ccc5[nH]c(-c6ccc(OCCCCNC(=O)c7cccc8c7C(=O)OC87c8ccc(N(C)C)cc8[Si](C)(C)c8cc(N(C)C)ccc87)cc6)nc5c4)nc3c2)CC1 | ALB | binding, fluorescence titration | PBS | 1 h |  | Kd | 15 ± 9 µM
CNc1nc(N)nc2c1ncn2[C@@H]1O[C@H](CO[P@](=O)(O)N[C@@H](C)C(=O)O)[C@@H](O)[C@@]1(C)F | ABCB1 | bidirectional transport | LLC-PK1, human MDR1, transfected with | 10 µM, added: zosuquidar 1 µM |  | Papp A to B | 5.43 ± 1.04 ×10⁻⁶ cm/s
C=CC(=O)N1CC2C(=O)N(CCN(C)C)c3c(c4cc(Cl)c(-c5c(O)cccc5F)nc4n(-c4c(C)ccnc4C(C)C)c3=O)N2CC1C (stereo not shown) | ABCB1 |  | MDCK-MDR1 |  |  | Papp A-B | 2.1 ×10⁻⁶ cm/s
CN1CCN(c2ccc3[nH]c(-c4ccc5[nH]c(-c6ccc(OCCCCNC(=O)c7ccc8c(c7)C7(OC8=O)c8ccc(N(C)C)cc8[Si](C)(C)c8cc(N(C)C)ccc87)cc6)nc5c4)nc3c2)CC1 | ALB |  | PBS | 1 µM, 1 h, added: 25 mg/mL albumin |  | fluorescence quantum yield | 0.06 ± 0.001
CNC(=O)C1CCCN(C(=O)C2CC3CCC2N3C(=O)[C@@H]2C[C@@H](O)CN2C(=O)NCc2cccc(Cl)c2F)C1 (mixture of isomers) | Cytochrome P450 1A2 (CYP1A2, Homo sapiens, UniProt P05177) | preincubation without NADPH | human | 1.85 µM | baseline: negative control | remaining activity | 92.1% and 103% and 100%
c1ccc(CN2CCCNCCNCCCNCC2)nc1 | Pd(II) | potentiometry and UV spectrophotometry | aqueous 1.0 M KCl | 25 °C, Pd2+ + L to PdL |  | log overall stability constant | 42.6
C=CC(=O)Nc1cc(Nc2nccc(-c3cn(C)c4ccccc34)n2)c(OCC(F)(F)F)nc1N(C)CCN(C)C | CYP1A2 human | inducer | hepatocytes lot HC3-31 | 0.1 µM | baseline: omeprazole 100 µM | induction relative to positive control | 5.21%
CCCCCCCC/C=C/CCCCCCCC(=O)[O][Pt-2]1([OH])([Cl])([NH+]=C(CC)N(C)CCNc2c3ccccc3[nH+]c3ccccc23)[NH2+]CCC[NH2+]1.O=[N+]([O-])[O-].O=[N+]([O-])[O-] | human serum albumin recombinant |  | FBS-free medium | added: HSA 10-fold excess |  | protein-bound fraction | > 95%
CNc1nc(N)nc2c1ncn2[C@@H]1O[C@H](CO)[C@@H](O)[C@@]1(C)F | ABCB1 | bidirectional transport | LLC-PK1, human MDR1, transfected with | 10 µM |  | Papp A to B | 12.5 ± 0.7 ×10⁻⁶ cm/s
CN1CCN(c2ccc3[nH]c(-c4ccc5[nH]c(-c6ccc(OCCCCNC(=O)c7ccc8c(c7)C7(OC8=O)c8ccc(N(C)C)cc8C(C)(C)c8cc(N(C)C)ccc87)cc6)nc5c4)nc3c2)CC1 | ALB | binding, fluorescence titration | PBS | 1 h |  | Kd | 31 ± 9 µM

For quick reference, copied from above:
SMILES | target | test | test system | setting | scale | measurement | value
C=CC(=O)N1CC2C(=O)N(CCN(C)C)c3c(c4cc(Cl)c(-c5c(O)cccc5F)nc4n(-c4c(C)ccnc4C(C)C)c3=O)N2CC1C (stereo not shown) | ABCB1 |  | MDCK-MDR1 |  |  | Papp A-B | 2.1 ×10⁻⁶ cm/s
